Experimental data of several laboratories.

COc1ccc([C@@H](O)c2cc(-c3ncnc4cc(N5CCOCC5)ccc34)c(F)cc2Cl)nn1  Cmax (human, plasma; oral, 200 mg, multiple doses, twice daily, patients): 2370 ng/mL
CCn1ccc2c([C@](O)(c3cnc(C(F)(F)F)c(Cl)c3)C3CC3)n(C)nc2c1=O  hepatocyte CLint (metabolic stability; human, hepatocytes; 0.5 µM, pH 7.4): 3.4 µL/min/10⁶ cells
N=C(N)c1cccc(OCCCCCOc2cccc(C(=N)N)c2)c1  haemolysis (haemolysis; sheep; 200 µg/mL, 1 h): 0.1%
COc1ccc2c(c1)CN(C(=O)CCN1CCC(Cc3ccccc3)CC1)CC[S@@+]2[O-]  AUC(0-t) (male human, plasma; intravenous, 0.15 mg/kg, healthy volunteers): 675 ng·h/mL
O=C(NC1(C(F)(F)F)CC1)c1ccccc1  logP (water; 24 h): 1.9
O=C(CCCCCCC(=O)Nc1ccc(CC[18F])cc1)NO  tracer uptake (male nude mouse, stomach; intravenous, 30 min, tumour-bearing): 2.1 %ID/g
COCCc1ccc(OCC(O)CNC(C)C)cc1 (stereo not drawn)  hepatocyte CLint (metabolic stability; human, hepatocytes; 0.5 µM, pH 7.4): 4.05 µL/min/10⁶ cells
Cc1cc2sc(N)nc2c2cccnc12  MRT(0-inf) (female BALB/c mouse, plasma; intraperitoneal, 30 mg/kg, single dose): 4.89 h
COc1ccc(CNc2nc(-c3ccc(C(=O)O)cc3)nc3c2c2ccccc2n3C)cc1Cl  logP: 6.55
C#C[C@]1(CO)O[C@@H](n2cnc3c(N)nc(F)nc32)C[C@@H]1O  AUC(0-t) (monkey, plasma; oral, 75 mg/kg): 222 µM·h
Oc1cccc(-c2nc(N3CCC(c4ccccn4)C3)c3ccccc3n2)c1 (stereo not drawn)  microsomal CLint (metabolic stability; mouse, liver microsomes): 628 µL/min/mg
CCOCC(=O)N1C2CCC(C(=O)NCc3nc(-c4ccc(C#N)cc4)cs3)C1CC2 (stereo not drawn)  microsomal CLint (metabolic stability; male Sprague-Dawley rat, liver microsomes; 0.5 µM): 130 µL/min/mg
c1ccc(-c2nc(NCCn3cnc4ccccc43)c3ccccc3n2)nc1  microsomal CLint (metabolic stability; mouse, liver microsomes): 538 µL/min/mg
O=C1CC[C@H](N2Cc3cc(N4CCN(CC5CCN(c6ccc([C@@H]7c8ccc(O)cc8CC[C@@H]7c7ccccc7)cc6)CC5)CC4)ccc3C2=O)C(=O)N1  AUC(0-inf) (female Sprague-Dawley rat, plasma; oral, 20 mg/kg, fasted): 11300 ng·h/mL
NC(=O)C1CCN(c2nc(-c3ccccn3)nc3ccccc23)C1 (stereo not drawn)  microsomal CLint (metabolic stability; mouse, liver microsomes): 175 µL/min/mg
N=C(N)c1ccc(OCc2ccc(COc3ccc(C(=N)N)cc3)cc2)cc1  haemolysis (haemolysis; sheep; 200 µg/mL, 1 h): 0.2%
CC[C@@](O)(c1cnc(C(F)(F)F)c(Cl)c1)c1c2cnn(C3CC3)c(=O)c2nn1C  hepatocyte CLint (metabolic stability; human, hepatocytes; 0.5 µM, pH 7.4): 1.3 µL/min/10⁶ cells
COc1ccc(Oc2ccc3c(=O)c4c(F)cc(Cl)cc4[nH]c3c2)cc1  microsomal CLint (metabolic stability; mouse, liver microsomes; 1 µM, pH 7.4): 15.1 µL/min/mg
COc1cc(C(=O)NC2CCN(C)CC2)c(F)cc1Nc1ncc(C(F)(F)F)c(Oc2cccc3c2C(=O)N(C)C3)n1  CL/F (human, plasma; oral, 50 mg, multiple doses, once daily, patients): 290 mL/min
CC[C@@](O)(c1ccc(C(F)(F)F)nc1)c1c2ccn(C3CC3)c(=O)c2nn1C  hepatocyte CLint (metabolic stability; human, hepatocytes; 0.5 µM, pH 7.4): 2.4 µL/min/10⁶ cells
c1ccc(-c2nc(N3CCN(c4ccccn4)CC3)c3ccccc3n2)nc1  microsomal CLint (metabolic stability; mouse, liver microsomes): 485 µL/min/mg
CCOC(=O)[C@@]12C[C@@H]1[C@@H](n1ccc3c(NC)nc(C#Cc4ccc(Cl)s4)nc31)[C@H](O)[C@@H]2O  Tmax (male Sprague-Dawley rat, plasma; oral, 1 mg/kg): 0.83 h
NCCOCC(=O)N1CCC[C@H](C(=O)NCc2nc(-c3ccc(C4CC4)cc3)cs2)C1  microsomal CLint (metabolic stability; male Sprague-Dawley rat, liver microsomes; 0.5 µM): < 3 µL/min/mg
NCc1cc2c(cc1F)C(=O)N(C1CCC(=O)NC1=O)C2 (stereo not drawn)  concentration (male CD-1 mouse, plasma; oral, 10 mg/kg, 10.2 min): 52.2 ng/mL
N#C[C@@]12C[C@@H]1[C@@H](n1cnc3c(N[C@@H](C4CCC4)C4CC4)nc(I)nc31)[C@H](O)[C@@H]2O  AUC(0-inf) (male Wistar rat, plasma; oral, 3 mg/kg): 105 ng·h/mL
COc1cccc(-c2n[nH]c(SCc3ccccn3)n2)c1OC  concentration (male Sprague-Dawley rat, plasma; oral, 10 mg/kg, 8 h, single dose): 25.6 ng/mL
Cc1nn(C2CC2)c(=O)c2nn(C)c(Cc3ccc(C(F)(F)F)c(C#N)c3)c12  Papp B→A (Caco-2): 76.9 ×10⁻⁶ cm/s
COCC(=O)N1CCC[C@H](C(=O)NCc2nc(-c3ccc(C#N)cc3)cs2)C1  microsomal CLint (metabolic stability; male Sprague-Dawley rat, liver microsomes; 0.5 µM): 17 µL/min/mg
c1ccc(-c2nc(N3CCCC3)c3ccccc3n2)nc1  Papp (PAMPA; 10 µM, 3 h, pH 7.4): 27.9 ×10⁻⁶ cm/s
N=C(N)c1ccc(OCc2ccccc2COc2ccc(C(=N)N)cc2)cc1  haemolysis (haemolysis; sheep; 200 µg/mL, 1 h): 1.7%
COc1cc2c3c(n(CCCN4CCOCC4)c(=O)c2cc1OC)-c1cc2c(cc1C3=O)OCO2  AUC(0-inf) (male beagle dog, plasma; intravenous, 100 mg/m², infusion): 1850 ng·h/mL
O=C(c1ccc(F)cc1)C1CCN(CCn2c(=O)[nH]c3ccccc3c2=O)CC1  compound remaining (metabolic stability; dog, liver microsomes; 15 min): 81.5%
CCN1CCN(Cc2ccc(NC(=O)c3ccc(C)c(NC(=O)c4cncc(-c5cccs5)c4)c3)cc2C(F)(F)F)CC1  AUC(0-inf) (mouse, plasma; intraperitoneal, 20 mg/kg, single dose): 2210 ng·h/mL
O=c1c2c([nH]c3cc(Oc4ccc(OC(F)(F)F)cc4)c(F)cc13)CCCC2  microsomal CLint (metabolic stability; mouse, liver microsomes; 1 µM, pH 7.4): 105 µL/min/mg
CC(C)[N+](C)(CCOC(=O)C1c2ccccc2Oc2ccccc21)C(C)C  compound remaining (metabolic stability; human, plasma; 15 min): 72.8%
O=C(COc1ccc(Cl)cc1)NC12CC(c3nnc([C@H]4C[C@@H](OC(F)(F)F)C4)o3)(C1)C2  half-life (human, plasma; oral, 200 mg, multiple doses, once daily, healthy volunteers): 46.4 h
O=C1c2ccncc2C(=O)c2c1[nH]c1ccccc21  MRT (rat, plasma; intravenous, 5 mg/kg, single dose): 27.5 h
CC(C)Oc1c(NC(=O)c2ccc(NC(=O)[C@H](CC(N)=O)NC(=O)c3ccc(NC(=O)c4ccc(C#N)cc4)cc3)cc2)ccc(C(=O)Nc2ccc(C(=O)O)cc2)c1O  MRT (male CD-1 mouse, plasma; intravenous, 5 mg/kg, single dose): 1.08 h
Cn1cc(-c2nc(N3CCC(c4ccccn4)C3)c3ccccc3n2)cn1 (stereo not drawn)  Papp (PAMPA; 10 µM, 3 h, pH 7.4): 36.7 ×10⁻⁶ cm/s
N=C(N)c1ccc(OCc2ccc3ccc(COc4ccc(C(=N)N)cc4)cc3c2)cc1  haemolysis (haemolysis; sheep; 200 µg/mL, 1 h): 2.6%
Cc1cc(=O)n(-c2ccccc2)n1C  hepatocyte CLint (metabolic stability; Sprague-Dawley rat, hepatocytes; 0.5 µM, pH 7.4): 1.8 µL/min/10⁶ cells
CCn1cnc2c(N3CCC(c4ccccn4)C3)nc(-c3ccccn3)nc21 (stereo not drawn)  microsomal CLint (metabolic stability; mouse, liver microsomes): 44 µL/min/mg
